Assay results collected from several papers.
A part holds a random share of what one study measured.

Sample 1 — technique: protein binding microarray; form: double-stranded DNA, one strand shown; medium: in vitro; tested at: not given; relative to: not given; direction: higher = stronger binding
Target: Histone acetyltransferase KAT6A, winged helix 1, GST fusion (KAT6A, Homo sapiens, UniProt Q92794, residues 1-85)
Notes: 8-mer, flanks averaged, mean of 2 arrays, mostly near background
Residues (chain): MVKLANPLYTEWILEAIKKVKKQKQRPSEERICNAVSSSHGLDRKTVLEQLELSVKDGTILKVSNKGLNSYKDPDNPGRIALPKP
Strand | E-score
CCGAATAC | 0.164
CGTCAGAC | 0.0565
AATGCAGG | -0.164
ATAAGATC | -0.251
GCTGCACC | 0.0718
ACATAAAT | -0.0152
CTGGTGGC | -0.234
AACAATTC | -0.0905
CGCACCGC | 0.338
CGCATAAC | 0.0345
GTTCTTAA | -0.086
GACTCATA | -0.156
AGCGGTGC | 0.102
CACCACAC | -0.0386
CATTGGTC | -0.176
AAAACCCA | -0.127
GCCCCGTA | 0.227
GCCTCGTA | -0.0132

Sample 2 — technique: RNA Bind-n-Seq; form: RNA; medium: in vitro; tested at: 100 nM; relative to: input RNA pool; direction: higher = stronger binding
Target: RING finger protein unkempt homolog, zinc fingers 1-6, SBP tag (UNK, Homo sapiens, UniProt Q9C0B0, residues 30-357)
Sequence of UniProt Q9C0B0 (30-357, looked up): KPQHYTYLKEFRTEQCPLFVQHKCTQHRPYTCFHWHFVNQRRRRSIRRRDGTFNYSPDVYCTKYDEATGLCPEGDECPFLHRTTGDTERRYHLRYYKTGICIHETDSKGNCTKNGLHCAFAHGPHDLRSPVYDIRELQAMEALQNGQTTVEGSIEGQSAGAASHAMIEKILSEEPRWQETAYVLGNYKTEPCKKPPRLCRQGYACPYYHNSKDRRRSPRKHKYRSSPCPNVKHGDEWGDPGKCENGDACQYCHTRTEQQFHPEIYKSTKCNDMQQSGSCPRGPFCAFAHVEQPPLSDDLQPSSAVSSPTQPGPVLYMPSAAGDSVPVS
Notes: RNA with constant flanks, vertebrate orthologous sites, ends assumed
Strand | bound/input enrichment [ratio]
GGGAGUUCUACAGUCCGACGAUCUGGGUUAUUCCUAUAAUUAUCAAGUAGCUGGAAUUGUGAAGGUCGGAGUAGUUAGAUCUUUAGCUUUUAUUCCUUUUUUUUGUAUUACUAUCCAUGUGUAUAAAUUAUUGAUCAUGUUGCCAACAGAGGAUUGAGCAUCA | 2.17
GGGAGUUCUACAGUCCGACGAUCAUGGCACCCCCUGUGAGAGGGAGUGGGGGAAGCCCAAGAUGACCCUCAGUUGUUCCAAUCCAGUAUUUUUUCCUUUAAAAAAAAAUUACUGUAUUUAUUAUGACGAUGGUGACUCCCCAACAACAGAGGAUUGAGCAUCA | 0.218
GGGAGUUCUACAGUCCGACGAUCCGUUCCCUGCUCUUGGGUGCGACUGAACACGAAGCAUCUGCCAGCGCUACAAGGGCACCAUAGUAUUUUUUUUGCUGCCUCCGAGUCCCCACAGCCUUCAAAGAGAAGUGGUAGUAGAUUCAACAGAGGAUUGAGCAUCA | 1.92
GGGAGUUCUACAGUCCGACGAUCUAUUCAGUCAUGGAGAAAAGGUUAUUAAAAUAAUCUUAUGGCACUGCUCUUUACUUUUAUUAGUUUUACAAGAGUUAGGGUUCUUGUUCACAGAAAACAGGAGCUGACUAUUGAGGAGAACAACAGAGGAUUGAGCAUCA | 0.345
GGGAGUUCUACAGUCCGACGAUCGAAUAGAACUCUUGCAUUCUUAGAUGUUAUAAAAAUAUAAAUCUGAAUUGUAAGAGUUAGCAUAGGUUUUUUUUUUUAAGCACUUGUUUUGAGUACAAGUCAUUUCGGAAAUUUUAUAUACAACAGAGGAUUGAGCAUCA | 1.24
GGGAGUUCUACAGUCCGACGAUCGUCCCUCAGCGACAGCAUGCCUUCGGUUGCAGAUUCCCACUCGAGCCACUUCUCCGAAUUCAGUUGUUGUGACCUGGAGAGCGUGAAGACCUCGUGCAGCCACGGCUCCGGGGACUGCCACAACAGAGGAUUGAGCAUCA | 0.311
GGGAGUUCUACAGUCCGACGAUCGUGGUAAUGUGUUCUUUAUUGAAAAUAGUUUUGUGCUAAGGACUGUAUUAGAUUUAAAAAUGAGUAGGUUCAUUCCCCAUUGUUGUGUUGAUUUUAUUAUUGAAAAUAAAUAUAACUUCACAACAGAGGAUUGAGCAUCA | 1.47
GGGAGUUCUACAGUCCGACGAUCAAUCAGUAGAAUUACAUAAUACUAAAGUUGCAGUUGAAAGGAUAUCCAAGUAUGUGUUGGUAGUUACUAAAGGAAUUAUAGCUGUUAUUGCCUUGUAUUUAUAGACCUUGUUUCAGGUUUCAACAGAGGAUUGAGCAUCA | 0.741
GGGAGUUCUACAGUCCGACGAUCUGAAAGUUACAGACAAGAGUCUGAAAGUAGAAAUACAGGAUCCUGGUUAUCAUCAUCUCUACGAAACAGAUGUACACCUCUGUUCUCCAGAAGGCGGCGAGAAGGAAGAGAUGAAUCUGCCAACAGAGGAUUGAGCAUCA | 0.174
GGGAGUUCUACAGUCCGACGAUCGAGCGCUGCCAGUGCGUAUCCACAACACUGGGUGCAAAGUAGUAAUUCCACACCCACAGUAAGGUAGUUUCAGGGCAGUGUUGCUGUGGUUCUCUCUUGGGCAGGUUCUGAAAAUGUACACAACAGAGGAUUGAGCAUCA | 1.59
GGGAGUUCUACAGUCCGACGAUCCCUCCAGUGCUUGUUUUCAGGUUGUGGCUAAUUGCAUCUUCCACUUUAAGUUCUUUCCUGUGCCCCCUCCAUAAUCCCUCUCUUAACUCAGACAGGUGUGGAGUAUUUUACUCAGUCAUUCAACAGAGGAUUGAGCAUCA | 0.863

Sample 3 — technique: competition protein-binding microarray; form: double-stranded DNA, one strand shown; medium: in vitro; tested at: 2 µM; together with: Cbf1 competitor, 0.05 µM; direction: higher = stronger binding
Target: Phosphate system positive regulatory protein PHO4, full length, GST-tagged (PHO4, Saccharomyces cerevisiae, UniProt P07270, residues 1-312)
Notes: whole 60-bp probe, lowest competitor level
Target sequence (chain): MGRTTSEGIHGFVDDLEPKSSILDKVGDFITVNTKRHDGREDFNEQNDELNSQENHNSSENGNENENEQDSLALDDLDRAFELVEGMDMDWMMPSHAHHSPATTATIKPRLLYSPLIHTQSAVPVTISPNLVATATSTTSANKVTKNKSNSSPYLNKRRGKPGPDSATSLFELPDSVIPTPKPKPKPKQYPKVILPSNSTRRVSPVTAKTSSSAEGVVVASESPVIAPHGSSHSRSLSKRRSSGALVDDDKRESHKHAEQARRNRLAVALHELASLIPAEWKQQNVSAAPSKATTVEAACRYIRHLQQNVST
Strand | fluorescence intensity [a.u.]
CGTCCTAGCGATTGAGCTGTGGGTGCCATGAGGAAGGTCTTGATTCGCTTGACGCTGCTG | 5950
TTTTCGATTTTCTGGCACGATGCTGACTTAGTACTAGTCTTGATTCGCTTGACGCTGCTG | 11600
CTACAGACTTAGCACCACATGGGCACCACCAAGGTTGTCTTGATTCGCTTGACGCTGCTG | 11500
CACAATTGGTGGTGGACCGTGACGGACACCCAAAGCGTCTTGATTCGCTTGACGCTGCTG | 5270
CGTAAAAGAGAAAAGATCGTGCTTTCATCAAGCGCTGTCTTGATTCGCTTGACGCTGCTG | 8740
CTTCTGTAAATTTGTCACGTGACTTGACGCGCCCCGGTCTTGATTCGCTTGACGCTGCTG | 12900
TTGGCCGTATCTGATCTTGTGCAGGGAGTAACCACTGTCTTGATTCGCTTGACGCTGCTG | 3840
CGGATCAGTTTACATCATGTGTGCCCCCACCATGATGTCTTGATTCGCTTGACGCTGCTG | 8220
CCTAACTTCTTTAGGGGCGTGGCAACTGTCGGGACTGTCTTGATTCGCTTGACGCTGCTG | 8500
AAATTACTAAGTTGATGGGTGGGTGACGCCGTATGAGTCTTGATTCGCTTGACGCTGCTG | 4140
CTATTTTTCCTCTGGCGCGTGAATAGCCCGCAGAGAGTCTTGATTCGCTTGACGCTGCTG | 6530
CAAAGGTGAAATTGCCGCGTGGCCGCTAGATCCTGCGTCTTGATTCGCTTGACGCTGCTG | 9520
TGCAGCATCCAGCTTCCCGTGTATCCATACCACCCTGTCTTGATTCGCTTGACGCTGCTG | 5610
CGTCCTAGTGATTGCTCCGTGGGTGCCATGAGGAAGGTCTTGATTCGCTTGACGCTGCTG | 7260
GTCTTGTCTCATTGAAGCGTGGGTGTCCCCACTTCAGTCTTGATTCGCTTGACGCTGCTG | 7730
TTGGACTTTAATGGGGGCGTGGGTATGTTTGGAGACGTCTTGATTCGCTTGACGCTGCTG | 9830
CTAACGAAGGTTTTTCACGTGGGTTACAAGCCAAGTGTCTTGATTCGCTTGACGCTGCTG | 13600
TTTCGAGCCAGTTTGCACGTAGTACGGGCCCCCCTAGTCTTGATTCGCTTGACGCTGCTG | 6380
TCATAGAAGGAAAAGCACATGGTACCCAGGCAGAGTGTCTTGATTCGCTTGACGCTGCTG | 11400
AATTGTGCCAAAAATCACCTGTTATGGCTGACTTGAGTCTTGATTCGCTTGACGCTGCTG | 3600

Sample 4 — technique: RNA Bind-n-Seq; form: RNA; medium: in vitro; tested at: 365 nM; relative to: no-protein control; direction: higher = stronger binding
Target: RNA binding protein fox-1 homolog 2, RRM domain, GST-SBP tag (RBFOX2, Homo sapiens, UniProt O43251-10, residues 100-194)
Notes: natural RNA segment, single round, ends assumed
Construct (chain): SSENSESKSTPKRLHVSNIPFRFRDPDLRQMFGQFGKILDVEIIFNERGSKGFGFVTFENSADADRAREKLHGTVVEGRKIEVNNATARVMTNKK
Strand | RBNS enrichment (R)
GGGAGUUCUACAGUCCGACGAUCUCUUCAUGGUCUGCUGUGCACAAACUAUAUCCGAGAGAUCCUGUCUCCCCAAAAGCCACUGCUGGGAUGCUGGCCUCUGAUUUUUGAGCCAGCGUUGUCUCACUCUGAUCUGGAAUUCUCGGGUGCCAA | 0.31
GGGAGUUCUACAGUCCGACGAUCAGGCCAGGAAGGCAGUGGGGAUCCACCAUCACAUGGAACUGUAAGGCCAUAUAACUACACAAAACUGACCAAUCUGGGUUGCCAAAGCAGCCAGGCUUAUGCUGAAACCGUGGAAUUCUCGGGUGCCAA | 0.375
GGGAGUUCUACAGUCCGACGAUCGCUGACUAAACCCAGAAAGCCAAGGCUCUGCCAGUGGAAGAGACUUCACUUUUGUAGACCUUCCCUGAAGUCCAUGGAACAGACCUAAGGGAACAACUGAGCAUCAAAACUGGAAUUCUCGGGUGCCAA | 0.412
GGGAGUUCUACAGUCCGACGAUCCCCCAUGCAGUGUCAACUGAUGUUUAAGCUACAGAGCAUUGUUGUAGUGGUGAGGGCCCUCUGUUGCAGGGGCAUGGGGAAAUGCAUAUAUUAAUCAGGGGCUGGAGGAGUGGAAUUCUCGGGUGCCAA | 10.9
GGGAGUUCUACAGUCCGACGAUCGUGAUUUGAAAAAUACUCAUUCUGAACAUAUCCAUGCGCAAUCAUGAUAACUGUUGUGAGUAGUGCUUUUCAUUCUUCUCACUUGCCUUUGUUACUUAAUGUGCUUUCAGUGGAAUUCUCGGGUGCCAA | 0.285
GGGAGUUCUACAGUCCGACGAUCUGAGAGUUGUCUCUGUUGGUCCACUGUGUUUAGUUGCAAGGAUUUUUCCAUGUGUGGUGGUGUUUUUUGUUACUGUUUUAAAGGGUGCCCAUUUGUGAUCAGCAUUGUGAUGGAAUUCUCGGGUGCCAA | 5.6
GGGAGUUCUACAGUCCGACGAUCAACCGUGUUAGCAGCUCAGGAAGAUGCCGUGAAGCAUUCUUAUUAAACCACCUGCUAUUUCAUUCAAACUGUGUUUCUUUUUUAUUUCCUCAUUUUUCUCCCCUGCUCCUUGGAAUUCUCGGGUGCCAA | 0.702
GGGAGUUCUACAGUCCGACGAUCUUUGGGACCUCGAGGGGACAGCAAGAGAGAAUGAGAGAGGAGCUCCAAUGUGAGCUUUUCGUUCUUAUACAUUUAAUUUCGGGUGAUGUUGGCCAGAGGUAUCUGGGAGAUGGAAUUCUCGGGUGCCAA | 0.511
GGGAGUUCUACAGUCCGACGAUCCUCUAGUUCUUUGUUCAUAGCCCAGUAGACCUUGUUACUUCUGAGGUAAGUUAAGUAAGUUGAUUCGGUAUCCCCCCAUCUUGCUUCCCUAAUCUAUGGUCGGGAGACAGUGGAAUUCUCGGGUGCCAA | 0.333
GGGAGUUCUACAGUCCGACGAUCAAUCUUCCCUUUGUUGACUGGCCUUCACAGCCAUGGCUGGUGACAACAGAGGAUCGUUGAGAUUGAGCAGCGCUUGGUGAUCUCUCAGCAAACAACCCCUGCCCGUGGGCUGGAAUUCUCGGGUGCCAA | 0.502
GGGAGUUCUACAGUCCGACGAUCGCUCCACCUCCAAGCUCAGACAGGGCCCAGGCUUGGGGAACAGAGAGAGCAGGUGUACACCCAACCAAAGUGAUUGUGCCCUUGGUUGGGGGGCGCGGGCAUAUAACCUGUGGAAUUCUCGGGUGCCAA | 0.559
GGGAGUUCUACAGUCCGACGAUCUUUGUUUGGCUGGCCACUAGGUGGCAGCAUUGGUUCUACUUCUCUGCUUUUUAAGAGAAAUUUCAGGAAGGAUGAUCAUUCCAGUUAGUUUGGCAUUUUUUGUCGUUUGUUGGAAUUCUCGGGUGCCAA | 0.405
